Values quoted from earlier work that unrelated publications cite.
Protocols differ between the studies behind these lines. ± gives the spread as reported. Values after ≈ are worked out from the molar mass of the structure shown.
Grin1: Glutamate receptor ionotropic, NMDA 1 (Grin1, Rattus norvegicus, UniProt P35439)
DRD3: D(3) dopamine receptor (DRD3, Homo sapiens, UniProt P35462)
UniProt P35462, sequence (whole entry, looked up): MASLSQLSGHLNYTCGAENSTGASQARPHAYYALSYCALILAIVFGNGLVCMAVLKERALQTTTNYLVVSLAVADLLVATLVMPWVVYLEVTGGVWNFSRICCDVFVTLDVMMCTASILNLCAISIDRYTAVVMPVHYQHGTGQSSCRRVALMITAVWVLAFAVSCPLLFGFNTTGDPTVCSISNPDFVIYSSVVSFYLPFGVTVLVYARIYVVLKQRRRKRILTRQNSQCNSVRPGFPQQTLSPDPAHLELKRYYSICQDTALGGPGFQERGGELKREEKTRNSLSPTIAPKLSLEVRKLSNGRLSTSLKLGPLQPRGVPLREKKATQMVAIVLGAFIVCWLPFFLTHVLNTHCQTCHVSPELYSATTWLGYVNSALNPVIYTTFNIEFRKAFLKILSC
UniProt Q9NRH2, sequence (whole entry, looked up): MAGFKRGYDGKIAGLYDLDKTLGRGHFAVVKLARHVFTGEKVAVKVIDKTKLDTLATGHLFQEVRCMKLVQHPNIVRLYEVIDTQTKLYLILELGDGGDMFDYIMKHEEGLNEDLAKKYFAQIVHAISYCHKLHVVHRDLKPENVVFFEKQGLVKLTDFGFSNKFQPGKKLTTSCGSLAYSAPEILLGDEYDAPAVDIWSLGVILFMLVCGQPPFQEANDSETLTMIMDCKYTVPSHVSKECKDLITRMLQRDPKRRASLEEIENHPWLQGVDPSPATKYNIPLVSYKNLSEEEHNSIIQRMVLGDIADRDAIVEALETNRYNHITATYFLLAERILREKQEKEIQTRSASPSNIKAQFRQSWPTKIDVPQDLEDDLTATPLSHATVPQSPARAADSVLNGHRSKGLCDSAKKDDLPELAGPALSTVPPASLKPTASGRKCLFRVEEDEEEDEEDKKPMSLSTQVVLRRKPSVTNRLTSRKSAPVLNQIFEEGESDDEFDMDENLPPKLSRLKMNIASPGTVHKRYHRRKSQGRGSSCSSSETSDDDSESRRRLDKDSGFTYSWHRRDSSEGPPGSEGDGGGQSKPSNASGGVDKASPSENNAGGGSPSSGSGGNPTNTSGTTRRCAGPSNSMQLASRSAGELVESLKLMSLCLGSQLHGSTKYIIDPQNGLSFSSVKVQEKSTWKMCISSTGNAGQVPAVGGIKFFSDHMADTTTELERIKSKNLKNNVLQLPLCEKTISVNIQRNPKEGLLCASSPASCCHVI
UniProt P18825, sequence (whole entry, looked up): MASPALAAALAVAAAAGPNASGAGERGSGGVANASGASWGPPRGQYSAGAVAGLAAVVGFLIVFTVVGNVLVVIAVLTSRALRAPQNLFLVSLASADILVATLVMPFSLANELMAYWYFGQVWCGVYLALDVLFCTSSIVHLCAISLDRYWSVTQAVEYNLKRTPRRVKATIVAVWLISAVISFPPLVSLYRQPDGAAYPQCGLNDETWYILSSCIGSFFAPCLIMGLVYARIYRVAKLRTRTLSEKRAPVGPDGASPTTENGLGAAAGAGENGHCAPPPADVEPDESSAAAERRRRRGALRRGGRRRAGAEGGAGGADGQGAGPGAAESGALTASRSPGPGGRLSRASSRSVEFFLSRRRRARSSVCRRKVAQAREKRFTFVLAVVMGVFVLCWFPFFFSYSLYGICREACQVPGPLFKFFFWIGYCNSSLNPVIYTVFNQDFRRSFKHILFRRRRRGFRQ
UniProt P28335, sequence (whole entry, looked up): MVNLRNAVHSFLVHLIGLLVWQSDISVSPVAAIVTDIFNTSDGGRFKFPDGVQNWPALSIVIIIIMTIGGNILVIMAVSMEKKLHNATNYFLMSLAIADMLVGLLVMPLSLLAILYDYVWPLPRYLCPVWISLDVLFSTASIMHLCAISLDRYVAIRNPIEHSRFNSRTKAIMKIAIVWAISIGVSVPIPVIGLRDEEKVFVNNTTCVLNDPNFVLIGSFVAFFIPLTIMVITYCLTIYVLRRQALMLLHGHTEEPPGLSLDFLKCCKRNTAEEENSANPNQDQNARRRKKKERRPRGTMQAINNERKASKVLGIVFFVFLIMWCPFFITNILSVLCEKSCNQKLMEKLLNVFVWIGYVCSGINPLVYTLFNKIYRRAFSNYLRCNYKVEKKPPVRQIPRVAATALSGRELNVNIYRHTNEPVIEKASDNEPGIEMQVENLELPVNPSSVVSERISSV
UniProt P51589, sequence (whole entry, looked up): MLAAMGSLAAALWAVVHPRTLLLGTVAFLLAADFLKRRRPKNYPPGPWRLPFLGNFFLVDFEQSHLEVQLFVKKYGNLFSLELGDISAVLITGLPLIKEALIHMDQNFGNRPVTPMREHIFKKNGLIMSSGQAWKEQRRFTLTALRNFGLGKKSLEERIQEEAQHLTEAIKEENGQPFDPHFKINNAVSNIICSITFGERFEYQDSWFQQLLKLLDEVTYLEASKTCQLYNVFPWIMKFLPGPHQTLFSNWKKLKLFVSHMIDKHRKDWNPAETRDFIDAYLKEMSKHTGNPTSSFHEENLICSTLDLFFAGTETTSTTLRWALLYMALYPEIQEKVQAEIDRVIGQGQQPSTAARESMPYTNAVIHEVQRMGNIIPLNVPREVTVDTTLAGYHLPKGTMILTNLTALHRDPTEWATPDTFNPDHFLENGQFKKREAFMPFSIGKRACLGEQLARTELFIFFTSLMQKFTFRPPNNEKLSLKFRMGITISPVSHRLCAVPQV
UniProt Q13336, sequence (whole entry, looked up): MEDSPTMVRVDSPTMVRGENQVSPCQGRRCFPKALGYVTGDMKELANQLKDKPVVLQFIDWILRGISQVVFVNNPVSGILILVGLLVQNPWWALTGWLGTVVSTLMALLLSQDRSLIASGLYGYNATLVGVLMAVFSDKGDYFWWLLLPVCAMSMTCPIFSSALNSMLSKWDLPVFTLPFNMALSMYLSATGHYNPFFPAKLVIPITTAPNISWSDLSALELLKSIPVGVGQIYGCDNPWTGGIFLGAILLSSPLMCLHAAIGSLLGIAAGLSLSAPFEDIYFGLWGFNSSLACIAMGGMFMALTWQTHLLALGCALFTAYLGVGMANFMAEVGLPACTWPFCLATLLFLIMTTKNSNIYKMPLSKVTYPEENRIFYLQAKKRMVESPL
UniProt P09874, sequence (whole entry, looked up): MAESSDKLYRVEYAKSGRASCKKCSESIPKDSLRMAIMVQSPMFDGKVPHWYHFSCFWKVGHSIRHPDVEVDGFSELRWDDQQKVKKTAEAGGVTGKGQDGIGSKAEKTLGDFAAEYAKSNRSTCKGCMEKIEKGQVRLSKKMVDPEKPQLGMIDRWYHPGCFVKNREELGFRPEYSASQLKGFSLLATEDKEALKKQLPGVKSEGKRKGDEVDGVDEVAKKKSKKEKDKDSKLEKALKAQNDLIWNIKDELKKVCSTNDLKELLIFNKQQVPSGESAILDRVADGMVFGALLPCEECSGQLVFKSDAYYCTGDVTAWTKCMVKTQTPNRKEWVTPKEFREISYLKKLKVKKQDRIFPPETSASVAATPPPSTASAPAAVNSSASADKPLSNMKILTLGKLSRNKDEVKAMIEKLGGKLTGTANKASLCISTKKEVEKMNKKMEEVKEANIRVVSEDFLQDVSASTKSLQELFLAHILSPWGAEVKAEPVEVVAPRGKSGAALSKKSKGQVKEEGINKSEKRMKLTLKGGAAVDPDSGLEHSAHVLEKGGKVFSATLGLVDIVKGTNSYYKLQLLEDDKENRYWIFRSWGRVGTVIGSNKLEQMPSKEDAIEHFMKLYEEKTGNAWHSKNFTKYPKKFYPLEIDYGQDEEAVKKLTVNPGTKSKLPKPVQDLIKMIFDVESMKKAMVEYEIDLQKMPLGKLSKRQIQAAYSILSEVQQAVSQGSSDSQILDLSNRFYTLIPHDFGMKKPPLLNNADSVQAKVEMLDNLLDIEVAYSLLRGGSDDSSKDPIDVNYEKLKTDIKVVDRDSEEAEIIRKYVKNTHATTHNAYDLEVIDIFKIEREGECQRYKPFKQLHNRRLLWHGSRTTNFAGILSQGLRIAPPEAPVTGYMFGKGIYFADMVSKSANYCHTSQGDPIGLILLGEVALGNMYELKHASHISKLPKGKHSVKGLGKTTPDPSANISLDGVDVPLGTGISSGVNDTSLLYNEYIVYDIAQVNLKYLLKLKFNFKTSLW
UniProt Q9SQR3, sequence (whole entry, looked up): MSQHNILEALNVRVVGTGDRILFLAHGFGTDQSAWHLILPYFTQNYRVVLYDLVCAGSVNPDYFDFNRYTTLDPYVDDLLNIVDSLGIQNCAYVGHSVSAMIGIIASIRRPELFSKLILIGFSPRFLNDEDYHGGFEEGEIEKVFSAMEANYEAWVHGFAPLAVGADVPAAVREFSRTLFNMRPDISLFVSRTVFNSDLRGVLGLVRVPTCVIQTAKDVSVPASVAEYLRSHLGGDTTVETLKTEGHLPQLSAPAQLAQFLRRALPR

For `CNc1ccc(/C=C/c2ccc(OCCOCCOCCF)cc2)cc1`, the Ki was 0.0067 µM (amyloid plaques; binding).
`CN(C)Cc1ccc(-c2nc3cccc4c3n2CCNC4=O)cc1` gave a Ki of under 0.005 µM (PARP1 (Homo sapiens, UniProt P09874); inhibitor).
For `OC[C@H]1O[C@@H](n2ccc3c(O)ncnc32)[C@H](O)[C@@H]1O`, the Ki was 130 ± 24 µM (adenosine kinase (Toxoplasma gondii); binding).
The Ki of `O=C(O)/C(=C/c1c(C(=O)O)[nH]c2cc(Cl)cc(Cl)c12)c1ccccc1` is reported as 0.021 µM (Grin1; binding).
The Ki of `CCC(=O)NCC[C@@H]1CCc2ccc3c(c21)CCO3` is reported as 2.31e-05 µM (melatonin receptor; chick forebrain).
The Ki of `Cc1ccc(CSc2ncnc3c2ccn3[C@@H]2O[C@H](CO)[C@@H](O)[C@H]2O)cc1` is reported as 19 ± 3.9 µM (adenosine kinase (Toxoplasma gondii); binding).
`O=c1[nH]c(=O)n([C@@H]2O[C@H](CO)[C@@H](O)[C@H]2O)cc1F` has a Ki of 430 µM (cytidine deaminase (human); competitive inhibitor; concentration not given).
For `COc1cccc2c1C(=O)c1c(O)c3c(c(O)c1C2=O)C[C@@](O)(C(=O)CO)C[C@@H]3O[C@H]1C[C@H](N)[C@H](O)[C@H](C)O1`, the Ki was 13.8 ± 1.6 µM (Cytochrome P450 2J2 (CYP2J2, Homo sapiens, UniProt P51589); competitive binding; together with: ebastine).
`O=C(O)/C(=C/c1c(C(=O)O)[nH]c2cc(Cl)cc(Cl)c12)c1ccccc1` gave a Ki of 0.021 µM (Grin1; binding; historical reference data).
For `COc1cc(CNC(=O)CCCC/C=C/C(C)C)ccc1O`, the Ki was 0.208 µM (CA2 (Homo sapiens, UniProt P00918)).
The Ki of `O=C(O)C1=CCCN(CCON=C(c2ccccc2)c2ccccc2)C1` is reported as 0.2 µM (Slc6a1 (Rattus norvegicus, UniProt P23978); binding).
With `Nc1ccn([C@@H]2O[C@H](COP(=O)(O)O)[C@@H](O)[C@H]2O)c(=O)n1` the Ki was 500 µM (cytidine deaminase (human); competitive inhibitor; concentration not given).
With `O=c1oc2c(cc1O)oc(=O)c1cc(O)c(O)c(O)c12` the Ki was 56 µM (LDHA (Homo sapiens, UniProt P00338); enzyme activity, inhibitor; together with: NADH competition).
The Ki of `Cc1c(Cl)cccc1Nc1ccccc1C(=O)O` is reported as 2.52 µM (D14 (Arabidopsis thaliana, UniProt Q9SQR3)).
With `CNC(C)C1CCC(N)C(OC2C(N)CC(N)C(OC3OCC(C)(O)C(NC)C3O)C2O)O1` (centres unmarked) the MIC was 2 mg/L (≈ 4.19 µM) (Escherichia coli; clinical isolate RKI-No_515/16).
`Cn1c(=O)c2[nH]cnc2n(C)c1=O` has a Ki of 82 µM (alkaline phosphatase; inhibitor).
The remaining activity of `Nc1cc(C(F)(F)F)c(-c2nc(N3CCOCC3)nc(N3CCOCC3)n2)cn1` is reported as 100% (SNRK (Homo sapiens, UniProt Q9NRH2); enzyme activity; 10 µM; relative to: untreated).
`NC(N)=O` has a Ki of 100000 µM (Urea transporter 1 (Homo sapiens, UniProt Q13336); thiourea exchange; 0 °C).
The GI50 of `C[C@H]1COCCN1c1nc(-c2cnc(N)cc2C(F)F)nc(N2CCOCC2)n1` is reported as 347 nM (BXPC-3).
`OC[C@@]12C[C@@H]1[C@@H](n1cnc3c(NC(C4CCC4)C4CCC4)nc(I)nc31)[C@H](O)[C@@H]2O` gave a Ki of 0.719 µM (HTR2C (Homo sapiens, UniProt P28335); binding; together with: [3H]mesulergine).
`CC1(C)S[C@@H]2[C@H](NC(=O)[C@H](N)c3ccccc3)C(=O)N2[C@H]1C(=O)O` has an MIC of over 16 mg/L (Escherichia coli; clinical isolate RKI-No_515/16).
The Ki of `O=c1ncc(F)cn1[C@@H]1O[C@H](CO)[C@@H](O)[C@H]1O` is reported as 0.3 µM (cytidine deaminase (human); competitive inhibitor; concentration not given).
For `CCCN(CCC1(O)CC(NC(=O)c2ccc3ccccc3c2)C1)C1CC1c1ccc(Cl)cc1` (centres unmarked), the Ki was 0.0028 µM (DRD3; binding).
`OC[C@H]1O[C@@H](n2ccc3c(SCc4ccc(Cl)cc4Cl)ncnc32)[C@H](O)[C@@H]1O` gave a Ki of 26 ± 7.6 µM (adenosine kinase (Toxoplasma gondii); binding).
`O=c1[nH]c(=O)n([C@@H]2O[C@H](CO)[C@@H](O)[C@H]2O)cc1Br` gave a Ki of 380 µM (cytidine deaminase (human); competitive inhibitor; concentration not given).
`CNC(=O)[C@@]12C[C@@H]1[C@@H](n1cnc3c(NC)nc(C#Cc4ccc(F)c(F)c4)nc31)[C@H](O)[C@@H]2O` has a Ki of 2.14 µM (beta-3 adrenergic receptor; radioligand binding).
`CCc1cc(Cl)c(OC)c(N2CCN(C[C@H](O)CCNC(=O)c3cc4ccccc4[nH]3)CC2)c1` gave a Ki of 0.0068 µM (DRD3; binding).
`CC1CN([C@H]2C[C@H](O)[C@@H](CO)O2)C(=O)NC1=O` (some centres unmarked) has a Ki of 280 µM (cytidine deaminase (human); competitive inhibitor; concentration not given).
`CNC(=O)[C@@]12C[C@@H]1[C@@H](n1cnc3c(NCc4cccc(Cl)c4)nc(C#Cc4ccc(F)c(F)c4)nc31)[C@H](O)[C@@H]2O` has a Ki of 1 to 10 µM (ADRA2C (Homo sapiens, UniProt P18825); radioligand binding (PDSP)).
